Experimental data pooled from the literature.
Every numbered part comes from another study and shows a few of its results, in no order.
Sequence of UniProt P05771 (whole entry, looked up): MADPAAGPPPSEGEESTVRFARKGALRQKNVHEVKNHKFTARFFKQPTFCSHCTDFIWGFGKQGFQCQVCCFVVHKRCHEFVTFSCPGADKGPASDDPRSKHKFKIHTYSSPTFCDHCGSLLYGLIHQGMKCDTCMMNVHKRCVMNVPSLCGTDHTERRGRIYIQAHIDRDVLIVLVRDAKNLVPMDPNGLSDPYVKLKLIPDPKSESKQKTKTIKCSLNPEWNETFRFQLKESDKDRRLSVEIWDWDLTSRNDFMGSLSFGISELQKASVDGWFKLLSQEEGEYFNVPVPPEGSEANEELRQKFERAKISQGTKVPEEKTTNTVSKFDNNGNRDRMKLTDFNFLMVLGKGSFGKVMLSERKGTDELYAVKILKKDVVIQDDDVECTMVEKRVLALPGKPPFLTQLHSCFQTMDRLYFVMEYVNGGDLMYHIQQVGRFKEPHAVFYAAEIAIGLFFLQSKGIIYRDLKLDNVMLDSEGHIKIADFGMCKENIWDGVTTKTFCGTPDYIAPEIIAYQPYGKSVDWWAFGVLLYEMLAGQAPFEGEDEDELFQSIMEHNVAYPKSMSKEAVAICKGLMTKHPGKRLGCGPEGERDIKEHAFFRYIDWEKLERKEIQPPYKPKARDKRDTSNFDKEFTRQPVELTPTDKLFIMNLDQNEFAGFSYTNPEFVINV
Sequence of UniProt P45983 (whole entry, looked up): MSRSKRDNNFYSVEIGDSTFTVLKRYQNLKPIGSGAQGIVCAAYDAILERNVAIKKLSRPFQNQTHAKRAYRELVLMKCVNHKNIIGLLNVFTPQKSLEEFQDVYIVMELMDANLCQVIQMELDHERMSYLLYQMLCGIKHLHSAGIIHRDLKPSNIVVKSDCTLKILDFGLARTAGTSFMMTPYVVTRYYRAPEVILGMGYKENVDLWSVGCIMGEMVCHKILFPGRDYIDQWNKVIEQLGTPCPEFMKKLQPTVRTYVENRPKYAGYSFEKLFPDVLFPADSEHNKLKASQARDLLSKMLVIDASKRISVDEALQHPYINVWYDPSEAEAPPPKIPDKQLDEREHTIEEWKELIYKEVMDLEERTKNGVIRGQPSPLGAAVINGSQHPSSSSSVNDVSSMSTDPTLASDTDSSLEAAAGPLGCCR
Sequence of UniProt Q9Y6E0 (whole entry, looked up): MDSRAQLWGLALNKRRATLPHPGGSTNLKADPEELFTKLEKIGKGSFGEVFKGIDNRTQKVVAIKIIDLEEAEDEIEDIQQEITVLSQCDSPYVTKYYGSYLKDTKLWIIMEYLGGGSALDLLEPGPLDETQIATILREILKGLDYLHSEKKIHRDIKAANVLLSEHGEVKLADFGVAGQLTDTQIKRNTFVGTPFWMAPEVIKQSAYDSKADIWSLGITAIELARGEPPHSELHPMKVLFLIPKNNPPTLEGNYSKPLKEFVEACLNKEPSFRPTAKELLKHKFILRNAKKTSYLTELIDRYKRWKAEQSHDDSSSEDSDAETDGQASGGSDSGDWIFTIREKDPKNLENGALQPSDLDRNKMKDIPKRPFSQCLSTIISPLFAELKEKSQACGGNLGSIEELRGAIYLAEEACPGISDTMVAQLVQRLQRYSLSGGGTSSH
Sequence of UniProt Q9UPE1 (whole entry, looked up): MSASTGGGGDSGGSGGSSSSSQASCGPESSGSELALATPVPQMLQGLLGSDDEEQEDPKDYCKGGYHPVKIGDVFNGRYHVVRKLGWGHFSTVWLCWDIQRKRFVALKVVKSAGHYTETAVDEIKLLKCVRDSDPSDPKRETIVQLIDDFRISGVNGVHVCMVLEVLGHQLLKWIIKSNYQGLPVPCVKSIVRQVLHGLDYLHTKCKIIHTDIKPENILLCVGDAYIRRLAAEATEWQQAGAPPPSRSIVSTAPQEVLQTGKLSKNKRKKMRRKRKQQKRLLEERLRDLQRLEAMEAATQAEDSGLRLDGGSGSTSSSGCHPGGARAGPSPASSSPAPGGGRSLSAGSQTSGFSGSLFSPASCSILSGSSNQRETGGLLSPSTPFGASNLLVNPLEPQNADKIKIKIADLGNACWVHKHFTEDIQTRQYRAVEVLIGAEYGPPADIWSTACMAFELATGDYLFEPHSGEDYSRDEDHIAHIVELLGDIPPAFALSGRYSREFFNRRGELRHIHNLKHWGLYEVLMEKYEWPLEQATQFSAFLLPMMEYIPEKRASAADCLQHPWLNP
Sequence of UniProt P23458 (whole entry, looked up): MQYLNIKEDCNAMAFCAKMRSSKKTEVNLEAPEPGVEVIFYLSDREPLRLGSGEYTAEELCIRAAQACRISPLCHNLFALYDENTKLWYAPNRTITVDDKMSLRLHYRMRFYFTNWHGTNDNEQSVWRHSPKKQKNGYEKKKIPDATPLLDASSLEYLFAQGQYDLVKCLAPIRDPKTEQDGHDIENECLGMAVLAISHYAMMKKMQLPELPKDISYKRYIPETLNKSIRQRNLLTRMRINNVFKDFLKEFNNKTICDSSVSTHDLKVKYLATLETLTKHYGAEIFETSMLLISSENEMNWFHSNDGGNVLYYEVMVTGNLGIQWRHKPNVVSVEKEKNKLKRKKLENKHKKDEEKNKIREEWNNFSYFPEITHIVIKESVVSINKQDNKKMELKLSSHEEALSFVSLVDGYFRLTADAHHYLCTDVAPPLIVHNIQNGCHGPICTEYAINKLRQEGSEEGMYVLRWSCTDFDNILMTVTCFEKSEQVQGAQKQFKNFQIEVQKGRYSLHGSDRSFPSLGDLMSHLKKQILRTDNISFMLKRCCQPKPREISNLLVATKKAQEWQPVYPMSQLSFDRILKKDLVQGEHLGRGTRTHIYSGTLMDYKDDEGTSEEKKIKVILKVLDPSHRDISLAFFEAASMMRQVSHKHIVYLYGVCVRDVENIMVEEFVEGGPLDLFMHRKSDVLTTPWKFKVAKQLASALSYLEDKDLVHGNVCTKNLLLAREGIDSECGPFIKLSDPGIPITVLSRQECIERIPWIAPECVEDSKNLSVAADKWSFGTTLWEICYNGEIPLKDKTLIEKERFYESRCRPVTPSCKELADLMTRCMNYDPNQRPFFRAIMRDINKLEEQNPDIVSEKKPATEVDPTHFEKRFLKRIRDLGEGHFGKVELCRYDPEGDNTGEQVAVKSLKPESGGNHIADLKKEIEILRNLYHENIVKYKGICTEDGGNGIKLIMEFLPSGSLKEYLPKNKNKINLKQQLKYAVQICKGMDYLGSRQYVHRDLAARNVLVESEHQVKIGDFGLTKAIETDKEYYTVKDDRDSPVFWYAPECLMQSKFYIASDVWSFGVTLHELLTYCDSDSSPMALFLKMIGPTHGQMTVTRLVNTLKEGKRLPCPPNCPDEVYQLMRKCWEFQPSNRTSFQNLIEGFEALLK

Study 1 — effect on: cell-free assay; technique: competition with immobilised ligand; tested at: 0.1 µM
Compound: O=C(NCCCC1CCCCC1)c1ccc(CNC(=O)c2cnn(-c3ccccc3)c2C(F)(F)F)cc1
target | remaining binding
5'-AMP-activated protein kinase catalytic subunit alpha-2 (PRKAA2, Homo sapiens, UniProt P54646) | 100%
Rhodopsin kinase GRK1 (GRK1, Homo sapiens, UniProt Q15835) | 94%
Tyrosine-protein kinase JAK1, JH1 (JAK1, Homo sapiens, UniProt P23458) | 100%
Calcium/calmodulin-dependent protein kinase type II subunit delta (CAMK2D, Homo sapiens, UniProt Q13557) | 100%
Calcium/calmodulin-dependent protein kinase type II subunit beta (CAMK2B, Homo sapiens, UniProt Q13554) | 96%
Receptor tyrosine-protein kinase erbB-3 (ERBB3, Homo sapiens, UniProt P21860) | 100%
Serine/threonine-protein kinase 32A (STK32A, Homo sapiens, UniProt Q8WU08) | 76%
Receptor tyrosine-protein kinase erbB-2 (ERBB2, Homo sapiens, UniProt P04626) | 100%
Serine/threonine-protein kinase ULK2 (ULK2, Homo sapiens, UniProt Q8IYT8) | 100%
SRSF protein kinase 3 (SRPK3, Homo sapiens, UniProt Q9UPE1) | 100%
Cyclin-dependent kinase-like 1 (CDKL1, Homo sapiens, UniProt Q00532) | 80%
Homeodomain-interacting protein kinase 3 (HIPK3, Homo sapiens, UniProt Q9H422) | 88%
Focal adhesion kinase 1 (PTK2, Homo sapiens, UniProt Q05397) | 100%
Casein kinase I isoform epsilon (CSNK1E, Homo sapiens, UniProt P49674) | 100%
Non-receptor tyrosine-protein kinase TYK2, JH2 (TYK2, Homo sapiens, UniProt P29597) | 100%
Cyclin-G-associated kinase (GAK, Homo sapiens, UniProt O14976) | 100%
Serine/threonine-protein kinase B-raf (BRAF, Homo sapiens, UniProt P15056, V600E) | 100%
Receptor-type tyrosine-protein kinase FLT3 (FLT3, Homo sapiens, UniProt P36888, F691L/ITD) | 100%
Mitogen-activated protein kinase kinase kinase 11 (MAP3K11, Homo sapiens, UniProt Q16584) | 100%

Study 2 — SMILES: O=C1NC(=O)c2c1c1c3ccccc3[nH]c1n1cncc21; effect on: enzyme activity; mode: inhibitor; tested at: 0.5 µM; relative to: control
target | remaining activity [%]
Serine/threonine-protein kinase D2 (PRKD2, Homo sapiens, UniProt Q9BZL6) | 69.4
Mitogen-activated protein kinase 8 (MAPK8, Homo sapiens, UniProt P45983) | 83.9
NUAK family SNF1-like kinase 2 (NUAK2, Homo sapiens, UniProt Q9H093) | 80.1
Serine/threonine-protein kinase 24 (STK24, Homo sapiens, UniProt Q9Y6E0) | 48.4
Calcium/calmodulin-dependent protein kinase type II subunit gamma (CAMK2G, Homo sapiens, UniProt Q13555) | 52.3
Interleukin-1 receptor-associated kinase 1 (IRAK1, Homo sapiens, UniProt P51617) | 83.1
Protein kinase C beta type, isoform beta-II (PRKCB, Homo sapiens, UniProt P05771) | 94.7
Death-associated protein kinase 3 (DAPK3, Homo sapiens, UniProt O43293) | 29.6
Myosin light chain kinase 2, skeletal/cardiac muscle (MYLK2, Homo sapiens, UniProt Q9H1R3) | 33.7
Serine/threonine-protein kinase 26 (STK26, Homo sapiens, UniProt Q9P289) | 69.4

Study 3 — effect on: enzyme activity; mode: inhibitor; tested at: 10 µM
Target: Calcium/calmodulin-dependent protein kinase type II subunit alpha (CAMK2A, Homo sapiens, UniProt Q9UQM7)
Sequence of UniProt Q9UQM7 (whole entry, looked up): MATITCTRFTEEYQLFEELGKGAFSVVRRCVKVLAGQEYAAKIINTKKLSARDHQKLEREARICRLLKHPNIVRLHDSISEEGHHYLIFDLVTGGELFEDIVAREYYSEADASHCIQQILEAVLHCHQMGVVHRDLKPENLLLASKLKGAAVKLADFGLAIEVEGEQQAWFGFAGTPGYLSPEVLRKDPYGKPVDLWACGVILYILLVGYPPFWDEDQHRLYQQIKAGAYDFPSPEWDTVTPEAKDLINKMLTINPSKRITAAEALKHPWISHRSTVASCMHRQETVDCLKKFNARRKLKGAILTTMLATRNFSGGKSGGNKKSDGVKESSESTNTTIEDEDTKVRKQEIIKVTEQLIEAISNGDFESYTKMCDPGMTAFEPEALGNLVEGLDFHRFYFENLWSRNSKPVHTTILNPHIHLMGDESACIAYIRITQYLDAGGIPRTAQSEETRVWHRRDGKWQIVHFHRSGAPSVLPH
Structure (SMILES) | inhibition [%]
O=C(O)c1cccc(-c2noc(-c3ccccc3F)n2)c1 | 3
O=C(/C=C/c1ccc(O[C@@H]2O[C@H](CO)[C@@H](O)[C@H](O)[C@H]2O[C@@H]2OC[C@](O)(CO)[C@H]2O)cc1)c1ccc(O)cc1O | 10
CCC(=O)OCC(=O)[C@@]1(OC(=O)CC)[C@@H](C)C[C@H]2[C@@H]3CCC4=CC(=O)C=C[C@]4(C)[C@@]3(Cl)[C@@H](O)C[C@@]21C | 3
CC(C)=CCC/C(C)=C/CC/C(C)=C/CC/C=C(\C)CC/C=C(\C)CCC=C(C)C | -9
CCCCc1nc2cc(/C=C/C(=O)NO)ccc2n1CCN(CC)CC | 18
COc1cc2oc(=O)ccc2c(OC)c1CC=C(C)C | -28
CC(=O)c1c(O)cc(O)cc1O | 8
CC1(C)C(=O)[C@]2(C)CC[C@H]1C2 | -44
O=C1CCCC(=O)C1C(=O)c1ccc(C(F)(F)F)cc1[N+](=O)[O-] | -11
CCN1CCN(c2cc(-c3ccc(F)cc3)c3c(n2)CCCCCC3)CC1 | -5

Study 4 — tested at: 50 µM
Target: Bromodomain-containing protein 4, BD1 (BRD4, Homo sapiens, UniProt O60885)
Compound | inhibition
COc1ccc2[nH]c([S+]([O-])Cc3ncc(C)c(OC)c3C)nc2c1 (centres unmarked) | 3.75%
NS(=O)(=O)c1ccc(NN=C2C(=O)Nc3ccc(Br)cc32)cc1 | 19.4%
CC(C)(C)c1cnc(CSc2cnc(NC(=O)C3CCNCC3)s2)o1 | 15.4%
CN(C)C/C=C/C(=O)Nc1cc2c(Nc3ccc(F)c(Cl)c3)ncnc2cc1O[C@H]1CCOC1 | 13.7%
CN(C)C[C@@H]1CCn2cc(c3ccccc32)C2=C(C(=O)NC2=O)c2cn(c3ccccc23)CCO1 | 95.3%
COc1cc(F)c(F)c(Nc2ccc(I)cc2F)c1NS(=O)(=O)C1(C[C@H](O)CO)CC1 | 0.2%
Cc1ccc(NC(=O)c2ccc(CN3CC[C@H](N(C)C)C3)c(C(F)(F)F)c2)cc1Nc1nccc(-c2cncnc2)n1 | 42.9%
COc1cc(Nc2ncc3c(n2)-c2ccc(Cl)cc2C(c2c(F)cccc2OC)=NC3)ccc1C(=O)O | 13.1%
CNC(=O)c1cccc(-c2ccc3c(N4CCOC[C@@H]4C)nc(N4CCOC[C@@H]4C)nc3n2)c1 | 35%
CCCCCCCCCCCCCCCCCCOP(=O)([O-])OC1CC[N+](C)(C)CC1 | -17.4%
CNc1nc(-c2ccc3c(N)n[nH]c3c2)cc(N2C[C@@H](C(=O)NC3CCCCC3)CC[C@H]2C)n1 | 92.4%
CCN(CC)CCNC(=O)c1c(C)[nH]c(/C=C2\C(=O)Nc3ccc(F)cc32)c1C | 66.5%
COc1cc2ncn(-c3cc(OCc4ccccc4C(F)(F)F)c(C(N)=O)s3)c2cc1OC | 8.6%
Cc1cc(Nc2nc(N[C@@H](C)c3ncc(F)cn3)ncc2Cl)n[nH]1 | 19.4%

For quick reference, copied from above (study 4):
Compound | inhibition
COc1ccc2[nH]c([S+]([O-])Cc3ncc(C)c(OC)c3C)nc2c1 (centres unmarked) | 3.75%
NS(=O)(=O)c1ccc(NN=C2C(=O)Nc3ccc(Br)cc32)cc1 | 19.4%
CC(C)(C)c1cnc(CSc2cnc(NC(=O)C3CCNCC3)s2)o1 | 15.4%
CN(C)C/C=C/C(=O)Nc1cc2c(Nc3ccc(F)c(Cl)c3)ncnc2cc1O[C@H]1CCOC1 | 13.7%
CN(C)C[C@@H]1CCn2cc(c3ccccc32)C2=C(C(=O)NC2=O)c2cn(c3ccccc23)CCO1 | 95.3%
COc1cc(F)c(F)c(Nc2ccc(I)cc2F)c1NS(=O)(=O)C1(C[C@H](O)CO)CC1 | 0.2%
Cc1ccc(NC(=O)c2ccc(CN3CC[C@H](N(C)C)C3)c(C(F)(F)F)c2)cc1Nc1nccc(-c2cncnc2)n1 | 42.9%
COc1cc(Nc2ncc3c(n2)-c2ccc(Cl)cc2C(c2c(F)cccc2OC)=NC3)ccc1C(=O)O | 13.1%
